Published values of several laboratories.
Compare with care: the assays were run in different laboratories. Several values in a cell are separate wells, animals, samples, runs or records.

Compound | cell line | assay | setting | scale | measurement | result
CSCC[C@H](NC(=O)[C@H](Cc1ccc(OS(=O)(=O)O)cc1)NC(=O)[C@@H](N)CC(=O)O)C(=O)NCC(=O)N[C@@H](Cc1c[nH]c2ccccc12)C(=O)N[C@@H](CCSC)C(=O)N[C@@H](CC(=O)O)C(=O)N[C@@H](Cc1ccccc1)C(N)=O | HEK293T control virus | agonist, GloSensor cAMP | 0.0256 nM, no receptor expressed | higher = more cAMP | cAMP accumulation | 0.247 a.u.
CC(Nc1nc(N2CCCC2)nc2ccccc12)c1ccccc1 (centres unmarked) | HeLa Kyoto | RelA nuclear import, high content imaging | 1.58 µM, 3 h, together with: 1 µM PMA, 60 min | – | cells with nuclear RelA | 93.7% and 77.2%
Cc1ccc(C(=O)Nc2ccc(S(=O)(=O)O)c3cc(S(=O)(=O)O)cc(S(=O)(=O)O)c23)cc1NC(=O)c1cccc(NC(=O)Nc2cccc(C(=O)Nc3cc(C(=O)Nc4ccc(S(=O)(=O)O)c5cc(S(=O)(=O)O)cc(S(=O)(=O)O)c45)ccc3C)c2)c1 | HBL-1 | – | 0.1 µM, 120 h | – | viability | 112%
O=C(/C=C/C=C/C=C/C1CCCCC1)NC1=C[C@@](O)(/C=C/C=C/C=C/C(=O)NC2=C(O)CCC2=O)[C@@H]2O[C@@H]2C1=O | k029ax | cell growth, inhibitor, CellTiter-Glo luminescence | 78 h | relative to: day 0 cell count | GI50 | 17.4 µM
CCCCCCCCCCCCCCCc1cccc(O)c1C(=O)O | HBL-1 | – | 0.5 µM, 120 h | – | viability | 128%
C=Cc1c2[n-]c(c1C)/C=c1\[n-]/c(c(C)c1C=C)=C\c1[n-]c(c(CCC(=O)O)c1C)/C=c1\[n-]c(c(C)c1CCC(=O)O)=C2.[Sn+4] | SH-SY5Y | RNA-seq, measured: SIRPG-AS1 | 5 µM, 5 h | relative to: untreated | log2 fold change | 9.21
CC(C)N(CCC(=O)c1ccc2ccccc2c1)Cc1ccccc1 | HeLa expressing Ub(G76V)-GFP | Ub(G76V)-GFP degradation, inhibitor, cycloheximide chase | 12 µM | – | inhibition | 83%
C#Cc1cccc(Nc2ncnc3cc(OC)c(OCCCCCCC(=O)NO)cc23)c1 | BT-12 | cell viability, MTT | 10 µM, 72 h | – | inhibition | 94.5%
CN(C)c1ccc(/C=C2\C(=O)Nc3ccccc32)cc1 | HeLa expressing Ub(G76V)-GFP | Ub(G76V)-GFP degradation, inhibitor, cycloheximide chase | 12 µM | – | inhibition | 29%
CCn1cc(-c2cc(Cn3ccoc3=N)cc3c2CCN([C@@H](C)c2cc(OC)ccn2)C3=O)c(C(F)(F)F)n1 | SNU-886 | cell growth, inhibitor | 120 h | – | EC50 | 3.82 µM
CC1=NN(c2ccc(C(=O)O)cc2)C(=O)/C1=C\c1ccc(-c2cc(C)c(C)cc2[N+](=O)[O-])o1 | HBL-1 | – | 1 µM, 120 h | – | viability | 98.9%
NC(=O)Nc1sc(-c2ccc(F)cc2)cc1C(N)=O | HeLa expressing Ub(G76V)-GFP | Ub(G76V)-GFP degradation, cycloheximide chase | 12 µM | – | inhibition | 23%
CC/C(=N\NC(=O)NCc1cccc(O)c1)c1ccc(O)c(C)c1O | SK-OV-3 | gene expression, microarray, measured: DRAXIN | 10 µM, 24 h | relative to: DMSO | log ratio | -4.27
NC(=O)[C@H](CCCN=C(N)CCl)NC(=O)c1ccccc1 | HBL-1 | – | 0.5 µM, 120 h | – | viability | 124%
Cn1cc(-c2ccc(-c3cncc(Cl)c3N3CCC4(CCNC4=O)CC3)cc2)cn1 | COLO 205 | gene expression, microarray, measured: AK4 mRNA | concentration not given, 2 h | relative to: untreated cells | log2 fold change | 2.18
C[C@H](Nc1ccc2c(c1)OCCn1cc(N3C(=O)OC[C@H]3C(F)F)nc1-2)C(N)=O | A2058 | FOXO1 translocation, kinase translocation reporter | 2 h | – | IC50 | > 3 µM
O=C(NCc1ccccc1)c1c(/N=C/c2c(O)ccc3ccccc23)sc2c1CCCC2 | HBL-1 | – | 0.1 µM, 120 h | – | viability | 117%
CC[C@H](C)C(=O)O[C@H]1C[C@@H](C)C=C2C=C[C@H](C)[C@H](CC[C@@H]3C[C@@H](O)CC(=O)O3)[C@H]21 | BT-12 | cell viability, MTT | 10 µM, 72 h | – | inhibition | 83.7%
Cc1ccc(C=NNC(=O)C2CC(=O)N(c3ccc(F)cc3F)C2)cc1 (centres unmarked) | MDA-MB-231 and fibroblast spheroids | MTT | 10 µM, day 8 | – | viability reduction, up to | 53.2%
O=C(c1ccc(C(=O)N2CCC(N3CCCC3)CC2)c(Nc2ccccc2)c1)N1CCC(N2CCCC2)CC1 | HBL-1 | – | 0.5 µM, 120 h | – | viability | 111%
Nc1ncnc2c1ncn2[C@@H]1O[C@H](CO)[C@@H](O)[C@H]1O | activated human T cells | – | 100 µM | higher = more TNF | TNF production | 1550 a.u. and 2130 a.u. and 1690 a.u.
O=C(/C=C/C#Cc1cccc(NS(=O)(=O)c2ccccc2)c1)NO | HBL-1 | – | 0.1 µM, 120 h | – | viability | 95.9%
CCCCc1oc2ccc(NS(C)(=O)=O)cc2c1C(=O)c1ccc(OCCCN(CCCC)CCCC)cc1 | human embryonic stem cell aggregates | mRNA level, microarray, measured: EYA1 | 0.5 µM, 120 h | relative to: untreated, down-regulated | fold change | 5.4 fold

Repeated from above:
Compound | cell line | assay | setting | scale | measurement | result
CC(C)N(CCC(=O)c1ccc2ccccc2c1)Cc1ccccc1 | HeLa expressing Ub(G76V)-GFP | Ub(G76V)-GFP degradation, inhibitor, cycloheximide chase | 12 µM | – | inhibition | 83%
CCCCc1oc2ccc(NS(C)(=O)=O)cc2c1C(=O)c1ccc(OCCCN(CCCC)CCCC)cc1 | human embryonic stem cell aggregates | mRNA level, microarray, measured: EYA1 | 0.5 µM, 120 h | relative to: untreated, down-regulated | fold change | 5.4 fold
C#Cc1cccc(Nc2ncnc3cc(OC)c(OCCCCCCC(=O)NO)cc23)c1 | BT-12 | cell viability, MTT | 10 µM, 72 h | – | inhibition | 94.5%
